Experimental data collected from several papers.
Compare with care: the assays were run in different laboratories. ± marks the error that the study gave.
7-alpha-hydroxycholest-4-en-3-one 12-alpha-hydroxylase: 7-alpha-hydroxycholest-4-en-3-one 12-alpha-hydroxylase (Homo sapiens, UniProt Q9UNU6)
Sequence of UniProt Q9UNU6 (whole entry, looked up): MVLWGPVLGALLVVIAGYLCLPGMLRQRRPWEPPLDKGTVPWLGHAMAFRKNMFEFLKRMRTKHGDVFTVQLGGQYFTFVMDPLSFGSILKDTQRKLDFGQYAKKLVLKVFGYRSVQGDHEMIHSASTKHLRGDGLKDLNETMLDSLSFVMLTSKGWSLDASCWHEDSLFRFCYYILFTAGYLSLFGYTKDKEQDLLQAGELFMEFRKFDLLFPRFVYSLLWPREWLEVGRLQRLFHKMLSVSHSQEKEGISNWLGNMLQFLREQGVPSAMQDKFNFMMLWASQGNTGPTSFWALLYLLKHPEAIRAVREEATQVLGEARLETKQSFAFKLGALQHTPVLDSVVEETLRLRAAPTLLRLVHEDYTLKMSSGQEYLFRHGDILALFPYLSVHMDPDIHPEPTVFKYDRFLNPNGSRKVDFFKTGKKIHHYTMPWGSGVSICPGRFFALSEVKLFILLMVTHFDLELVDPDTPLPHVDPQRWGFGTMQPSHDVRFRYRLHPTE
ALDH2: Aldehyde dehydrogenase, mitochondrial (ALDH2, Homo sapiens, UniProt P05091)
Sequence of UniProt P05091 (whole entry, looked up): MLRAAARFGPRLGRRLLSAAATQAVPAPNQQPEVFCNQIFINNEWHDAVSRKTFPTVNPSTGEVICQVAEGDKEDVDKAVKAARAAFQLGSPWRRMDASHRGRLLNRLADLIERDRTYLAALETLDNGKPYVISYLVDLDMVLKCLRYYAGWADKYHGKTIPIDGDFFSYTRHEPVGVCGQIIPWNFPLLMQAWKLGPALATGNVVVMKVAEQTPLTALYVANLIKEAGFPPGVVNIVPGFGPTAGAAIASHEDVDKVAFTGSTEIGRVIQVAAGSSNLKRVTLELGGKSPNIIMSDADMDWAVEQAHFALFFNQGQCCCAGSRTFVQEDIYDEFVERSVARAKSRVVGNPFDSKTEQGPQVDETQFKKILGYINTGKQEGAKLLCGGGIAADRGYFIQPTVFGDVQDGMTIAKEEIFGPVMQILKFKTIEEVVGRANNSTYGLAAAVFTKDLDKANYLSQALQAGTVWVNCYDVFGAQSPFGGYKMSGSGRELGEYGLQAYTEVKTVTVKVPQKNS
Sequence of UniProt P06709 (whole entry, looked up): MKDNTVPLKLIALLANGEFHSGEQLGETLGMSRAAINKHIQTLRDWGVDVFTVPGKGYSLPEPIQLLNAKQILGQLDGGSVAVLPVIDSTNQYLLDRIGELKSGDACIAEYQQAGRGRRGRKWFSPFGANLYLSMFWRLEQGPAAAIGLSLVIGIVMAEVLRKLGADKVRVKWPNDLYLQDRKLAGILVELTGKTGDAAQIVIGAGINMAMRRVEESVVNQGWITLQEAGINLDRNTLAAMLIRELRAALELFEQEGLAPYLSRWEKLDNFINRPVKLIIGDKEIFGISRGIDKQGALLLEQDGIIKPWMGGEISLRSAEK
Sequence of UniProt P35226 (whole entry, looked up): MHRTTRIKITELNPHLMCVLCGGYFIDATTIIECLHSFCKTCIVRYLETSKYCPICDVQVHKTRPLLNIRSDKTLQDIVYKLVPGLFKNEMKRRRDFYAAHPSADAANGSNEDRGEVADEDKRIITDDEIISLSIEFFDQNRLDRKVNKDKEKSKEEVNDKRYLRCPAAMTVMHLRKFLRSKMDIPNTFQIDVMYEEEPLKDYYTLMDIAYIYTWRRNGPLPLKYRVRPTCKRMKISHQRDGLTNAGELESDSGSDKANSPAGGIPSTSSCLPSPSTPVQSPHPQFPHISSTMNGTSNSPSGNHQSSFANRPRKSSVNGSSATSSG
Sequence of UniProt P61823 (whole entry, looked up): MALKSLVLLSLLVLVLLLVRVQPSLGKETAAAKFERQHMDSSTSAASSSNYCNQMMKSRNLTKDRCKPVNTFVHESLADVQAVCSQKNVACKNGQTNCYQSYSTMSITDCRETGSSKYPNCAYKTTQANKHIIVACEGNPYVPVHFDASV
Sequence of UniProt Q99496 (whole entry, looked up): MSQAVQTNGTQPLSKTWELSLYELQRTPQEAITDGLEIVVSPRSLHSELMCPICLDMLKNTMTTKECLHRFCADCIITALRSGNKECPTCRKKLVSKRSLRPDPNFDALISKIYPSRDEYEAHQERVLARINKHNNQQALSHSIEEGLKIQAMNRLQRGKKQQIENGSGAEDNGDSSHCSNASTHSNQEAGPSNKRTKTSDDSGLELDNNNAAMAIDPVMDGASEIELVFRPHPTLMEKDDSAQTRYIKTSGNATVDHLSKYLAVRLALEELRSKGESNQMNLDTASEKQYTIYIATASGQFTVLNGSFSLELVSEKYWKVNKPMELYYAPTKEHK
Sequence of UniProt P35222 (141-305, looked up): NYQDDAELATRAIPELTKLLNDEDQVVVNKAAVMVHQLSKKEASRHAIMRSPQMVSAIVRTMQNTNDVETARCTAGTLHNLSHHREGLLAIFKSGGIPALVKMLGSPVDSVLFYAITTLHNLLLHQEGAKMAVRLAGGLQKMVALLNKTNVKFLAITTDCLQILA

SMILES	tested on	test	test system	setting	how to read	measurement	result
Clc1ccccc1C(c1ccccc1)(c1ccccc1)n1ccnc1	7-alpha-hydroxycholest-4-en-3-one 12-alpha-hydroxylase	binding, Soret peak shift titration		20% glycerol		Kd	1.64 µM
Nc1ccn([C@@H]2O[C@H](COP(=O)(O)OP(=O)(O)O)[C@@H](O)[C@H]2O)c(=O)n1	RNASE1 (Bos taurus, UniProt P61823)	binding, native mass spectrometry	surface-deposited protein	10-fold diluted		Kd	3.7 ± 0.2 µM
O=C(Nc1ccccc1Oc1nc2ccccc2n2cnnc12)c1cccs1	Catenin beta-1, residues 141-305 (CTNNB1, Homo sapiens, UniProt P35222)	binding, isothermal titration calorimetry		25 °C		Kd	2.22 µM
O=C(O)/C=C(/CC(=O)O)C(=O)O	uncharacterized protein (Pelagibacter ubique, UniProt Q4FLC8)	binding, direct isothermal titration calorimetry	Candidatus Pelagibacter ubique	added: MgSO4 53 mM		Kd	3.48 ± 0.49 µM
Nc1cc(F)ccc1NC(=O)c1ccc(CNC(=O)/C=C/c2cccnc2)cc1	ALDH2	inhibitor, competition pulldown	SW620 and MV4-11 lysate	1 h		Kd	> 30.2 µM
O=C(O)CCCC[C@@H]1SC[C@@H]2NC(=O)N[C@@H]21	birA (Escherichia coli, UniProt P06709)	DNA binding, DNase I footprinting		added: ATP, bio-5'-AMP		Kd	0.0037 µM
CCCCc1nc2cc(/C=C/C(=O)NO)ccc2n1CCN(CC)CC	ALDH2	inhibitor, competition pulldown	SW620 and MV4-11 lysate	1 h		Kd	> 30.2 µM
C=CC(=O)N1CCN(c2nc(OC[C@@H]3CCCN3C)nc3c(F)c(-c4nc(N)cc(C)c4C(F)(F)F)c(Cl)cc23)[C@@H](C)C1	GTPase KRas, GDP-bound (KRAS, Homo sapiens, UniProt P01116, G13D)	SPR				Kd	0.567 ± 0.036 µM
CC(C)C[C@H](NC(=O)C[C@H](O)[C@H](CC(C)C)NC(=O)[C@H](Cc1c[nH]cn1)NC(=O)CNC(=O)[C@@H](NC(=O)[C@H](C)NC(=O)[C@H](Cc1c[nH]c2ccccc12)NC(=O)[C@H](CCC(N)=O)NC(=O)[C@@H](Cc1ccccc1)NC(=O)COCCOCCNC(=O)CCC(C(=O)O)N1CCN(CC(=O)O)CCN(CC(=O)O)CCN(CC(=O)O)CC1)C(C)C)C(N)=O (some centres unmarked) [lutetium-177 labelled]			BALB/c nu/nu mice, female, PC-3 xenograft tumour	intravenous, 100 pmol, 4 h, added: PA 300 µg		tissue uptake	13.2 ± 2.2 %ID/g
Cn1cc(-c2ccc(-c3cncc(Cl)c3N3CCC4(CCNC4=O)CC3)cc2)cn1	COLO 205	gene expression, microarray, measured: PLD1 mRNA		concentration not given, 6 h	reference: untreated cells	log2 fold change	1.1
CCCCCCNc1nc(NC2CCN(C)CC2)c2cc(OC)c(OC)cc2n1	Toxoplasma gondii	parasite growth	HFF, bradyzoite, alkaline-induced			EC50	5.93 µM
C[C@H](O)C(=O)O	V20H-R359H zinc sensor protein	binding, fluorescence lifetime		no Zn2+		Kd	43 ± 8 µM
Cn1cc(-c2ccc(S(=O)(=O)n3ccc(/C=C/C(=O)Nc4ccccc4N)c3)cc2)cn1	ALDH2	inhibitor, competition pulldown	SW620 and MV4-11 lysate	1 h		Kd	> 30.2 µM
Cn1cncc1[C@@](N)(c1ccc(Cl)cc1)c1ccc2c(c1)c(-c1cccc(Cl)c1)cc(=O)n2C	7-alpha-hydroxycholest-4-en-3-one 12-alpha-hydroxylase	binding		20 min, pH 7.4		Kd	9.75 µM
CCCCN(Cc1ccc(C(=O)NO)cc1)C(=O)Nc1ccccc1	ALDH2	inhibitor, competition pulldown	SW620 and MV4-11 lysate	1 h		Kd	> 30.2 µM
OC(CCc1ccc(Cl)cc1)Cn1ccnc1 (centres unmarked)	7-alpha-hydroxycholest-4-en-3-one 12-alpha-hydroxylase	binding		20 min, pH 7.4		Kd	183 µM
CN(C)Cc1c(C(=O)NCCOc2ccc(C(=O)NO)cc2)oc2ccccc12	ALDH2	inhibitor, competition pulldown	SW620 and MV4-11 lysate	1 h		Kd	> 30.2 µM
Cc1cc(-c2cccc3[nH]ccc23)[nH]c1C(=O)O	BMI1/RNF2 (Homo sapiens, UniProt P35226+Q99496)			estimated		Kd	1000 µM
[N-]=[N+]=NCC1OC(OC2C(N)CC(N)C(OC3OC(CN)C(O)C(O)C3O)C2O)C(O)C(N)C1O (centres unmarked)	RNA, 5′UU/3′UU internal loops	RNA binding, fluorescence titration		1 h, room temperature, 12 copies of 2×2 loop		Kd	0.3 ± 0.052 µM
CC(=O)OC[C@H]1O[C@@H]([S-])[C@H](OC(C)=O)[C@@H](OC(C)=O)[C@@H]1OC(C)=O.CCP(CC)CC.[Au+]	Toxoplasma gondii	parasite growth, luciferase reporter	HFF host cells, tachyzoites	72 h		EC50	2.75 µM

Some of these lines once more:
SMILES	tested on	test	test system	setting	how to read	measurement	result
Cc1cc(-c2cccc3[nH]ccc23)[nH]c1C(=O)O	BMI1/RNF2 (Homo sapiens, UniProt P35226+Q99496)			estimated		Kd	1000 µM
